Experimental data from different studies.
Each numbered part is a random draw from the data of one study; scales do not carry over between parts. Several values in a cell are separate wells, animals, samples, runs or records.
Chain of UniProt Q04759 (whole entry, looked up): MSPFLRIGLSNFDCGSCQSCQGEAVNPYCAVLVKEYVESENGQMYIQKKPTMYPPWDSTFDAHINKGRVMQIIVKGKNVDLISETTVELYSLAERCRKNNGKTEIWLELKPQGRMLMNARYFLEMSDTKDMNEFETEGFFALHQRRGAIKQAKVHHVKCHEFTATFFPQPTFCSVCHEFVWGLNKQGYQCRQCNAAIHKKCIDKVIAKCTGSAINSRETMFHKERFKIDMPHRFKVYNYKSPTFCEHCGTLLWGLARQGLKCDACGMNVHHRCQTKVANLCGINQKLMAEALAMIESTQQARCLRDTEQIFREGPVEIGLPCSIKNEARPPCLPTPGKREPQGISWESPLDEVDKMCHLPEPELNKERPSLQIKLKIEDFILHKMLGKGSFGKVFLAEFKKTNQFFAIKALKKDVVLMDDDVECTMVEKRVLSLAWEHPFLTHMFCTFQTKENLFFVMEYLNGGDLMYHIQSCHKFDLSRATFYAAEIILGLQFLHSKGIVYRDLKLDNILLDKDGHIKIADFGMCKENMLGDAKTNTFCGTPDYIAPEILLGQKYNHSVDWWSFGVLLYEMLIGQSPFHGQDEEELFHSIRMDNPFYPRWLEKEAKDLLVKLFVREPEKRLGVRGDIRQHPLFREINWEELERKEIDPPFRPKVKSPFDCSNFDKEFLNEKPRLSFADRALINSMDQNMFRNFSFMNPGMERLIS
Chain of UniProt P53667 (whole entry, looked up): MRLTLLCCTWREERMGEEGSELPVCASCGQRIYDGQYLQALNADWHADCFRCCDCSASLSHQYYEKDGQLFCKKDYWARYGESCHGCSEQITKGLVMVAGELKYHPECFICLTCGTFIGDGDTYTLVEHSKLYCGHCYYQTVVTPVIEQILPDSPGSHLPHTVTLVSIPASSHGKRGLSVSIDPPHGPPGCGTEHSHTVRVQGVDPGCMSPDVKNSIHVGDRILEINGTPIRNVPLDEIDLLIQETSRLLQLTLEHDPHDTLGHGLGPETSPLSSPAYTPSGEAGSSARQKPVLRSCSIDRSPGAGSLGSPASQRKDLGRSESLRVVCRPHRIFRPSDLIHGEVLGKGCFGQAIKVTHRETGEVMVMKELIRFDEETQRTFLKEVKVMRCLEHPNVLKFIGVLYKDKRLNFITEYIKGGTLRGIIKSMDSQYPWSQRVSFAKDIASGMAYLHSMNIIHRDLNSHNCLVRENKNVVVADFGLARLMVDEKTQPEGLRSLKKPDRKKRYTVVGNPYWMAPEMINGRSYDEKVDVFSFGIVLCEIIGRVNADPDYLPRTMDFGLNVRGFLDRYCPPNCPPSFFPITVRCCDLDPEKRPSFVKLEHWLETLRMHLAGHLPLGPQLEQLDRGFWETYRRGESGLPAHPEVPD
Chain of UniProt O94921 (whole entry, looked up): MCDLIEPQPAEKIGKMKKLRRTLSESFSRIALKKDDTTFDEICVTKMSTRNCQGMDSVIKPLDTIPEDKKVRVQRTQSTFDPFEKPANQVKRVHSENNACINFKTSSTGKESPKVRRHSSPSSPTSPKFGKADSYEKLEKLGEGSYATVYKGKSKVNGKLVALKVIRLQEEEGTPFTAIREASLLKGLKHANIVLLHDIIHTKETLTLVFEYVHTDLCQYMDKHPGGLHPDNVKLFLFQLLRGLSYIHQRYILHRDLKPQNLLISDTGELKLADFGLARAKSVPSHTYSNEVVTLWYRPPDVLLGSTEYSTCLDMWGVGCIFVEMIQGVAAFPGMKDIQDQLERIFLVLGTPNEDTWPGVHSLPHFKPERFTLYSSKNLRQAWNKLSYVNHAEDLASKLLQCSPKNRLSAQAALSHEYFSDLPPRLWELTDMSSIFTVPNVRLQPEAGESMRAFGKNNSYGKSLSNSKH
Chain of UniProt P51955 (whole entry, looked up): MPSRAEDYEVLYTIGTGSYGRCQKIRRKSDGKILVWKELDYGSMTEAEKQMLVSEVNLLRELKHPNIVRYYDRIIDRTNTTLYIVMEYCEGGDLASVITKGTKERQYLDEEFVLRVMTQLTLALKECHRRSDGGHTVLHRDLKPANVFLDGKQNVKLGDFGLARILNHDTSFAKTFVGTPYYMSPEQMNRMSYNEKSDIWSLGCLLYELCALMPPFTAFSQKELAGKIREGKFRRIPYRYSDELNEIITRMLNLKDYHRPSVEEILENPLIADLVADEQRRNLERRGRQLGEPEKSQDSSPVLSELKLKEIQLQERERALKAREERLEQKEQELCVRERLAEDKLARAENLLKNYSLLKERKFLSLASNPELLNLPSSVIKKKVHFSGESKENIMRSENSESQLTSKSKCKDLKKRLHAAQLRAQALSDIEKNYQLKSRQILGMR
Chain of UniProt Q9Y6M4 (whole entry, looked up): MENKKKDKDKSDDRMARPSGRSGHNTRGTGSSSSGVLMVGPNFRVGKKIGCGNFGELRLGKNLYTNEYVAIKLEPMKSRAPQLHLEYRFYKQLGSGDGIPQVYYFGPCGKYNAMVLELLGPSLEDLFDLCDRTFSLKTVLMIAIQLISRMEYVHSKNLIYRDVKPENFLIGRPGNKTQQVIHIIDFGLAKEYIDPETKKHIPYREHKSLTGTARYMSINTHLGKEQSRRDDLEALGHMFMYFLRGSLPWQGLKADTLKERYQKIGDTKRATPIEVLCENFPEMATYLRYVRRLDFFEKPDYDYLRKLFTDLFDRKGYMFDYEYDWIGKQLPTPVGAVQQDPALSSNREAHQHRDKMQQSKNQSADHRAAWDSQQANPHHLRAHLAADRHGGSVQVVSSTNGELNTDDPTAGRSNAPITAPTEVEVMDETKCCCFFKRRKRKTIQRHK
Chain of UniProt Q9Y2H1 (whole entry, looked up): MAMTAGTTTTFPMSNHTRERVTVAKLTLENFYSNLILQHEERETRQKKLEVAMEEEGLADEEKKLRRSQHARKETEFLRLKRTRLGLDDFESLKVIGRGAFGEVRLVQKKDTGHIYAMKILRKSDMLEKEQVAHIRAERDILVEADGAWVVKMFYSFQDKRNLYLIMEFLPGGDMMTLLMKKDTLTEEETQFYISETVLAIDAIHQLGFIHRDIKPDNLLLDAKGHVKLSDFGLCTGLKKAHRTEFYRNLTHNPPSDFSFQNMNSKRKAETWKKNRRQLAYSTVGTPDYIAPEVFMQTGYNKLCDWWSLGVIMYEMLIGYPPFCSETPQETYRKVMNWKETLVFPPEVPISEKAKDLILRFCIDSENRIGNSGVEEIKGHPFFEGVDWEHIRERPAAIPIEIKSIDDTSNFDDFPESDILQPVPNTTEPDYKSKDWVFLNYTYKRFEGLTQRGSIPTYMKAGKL
Chain of UniProt Q9HC98 (whole entry, looked up): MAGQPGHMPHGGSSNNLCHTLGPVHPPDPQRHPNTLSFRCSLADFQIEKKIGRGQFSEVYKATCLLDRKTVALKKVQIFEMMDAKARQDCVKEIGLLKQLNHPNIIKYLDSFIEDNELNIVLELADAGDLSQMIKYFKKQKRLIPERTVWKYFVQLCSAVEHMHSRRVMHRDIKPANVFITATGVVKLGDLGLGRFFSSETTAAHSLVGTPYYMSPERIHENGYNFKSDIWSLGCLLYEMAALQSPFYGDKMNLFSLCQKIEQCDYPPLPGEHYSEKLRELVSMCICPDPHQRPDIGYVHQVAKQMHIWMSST

Set 1 — technique: NanoBRET; concentration: 1 µM
SMILES: COc1cc(-c2nc3ccc(C(=O)NCCCN(C)C)cc3n2C2CCC2)cc(OC)c1OC
target | target occupancy [%]
Serine/threonine-protein kinase 38-like (STK38L, Homo sapiens, UniProt Q9Y2H1) | -2.65
Cyclin-dependent kinase 14 (CDK14, Homo sapiens, UniProt O94921) | -3.07
Serine/threonine-protein kinase Nek2 (NEK2, Homo sapiens, UniProt P51955) | -12.9
Mitogen-activated protein kinase 10 (MAPK10, Homo sapiens, UniProt P53779) | 2.7
Fibroblast growth factor receptor 4 (FGFR4, Homo sapiens, UniProt P22455) | -1.83
Serine/threonine-protein kinase 3 (STK3, Homo sapiens, UniProt Q13188) | 1.68
LIM domain kinase 1 (LIMK1, Homo sapiens, UniProt P53667) | 0.2
Ephrin type-B receptor 4 (EPHB4, Homo sapiens, UniProt P54760) | -3.12
Interleukin-1 receptor-associated kinase 4 (IRAK4, Homo sapiens, UniProt Q9NWZ3) | -0.29
Serine/threonine-protein kinase PAK 4 (PAK4, Homo sapiens, UniProt O96013) | 1.51
SNF-related serine/threonine-protein kinase (SNRK, Homo sapiens, UniProt Q9NRH2) | -1.41

Set 2 — technique: ultracentrifugation; medium: mouse plasma; concentration: 2 µM; time: 4 h; pH: 7.4
SMILES | fraction unbound
Cc1ccc(O)c(C)c1-c1cnc2[nH]c(-c3cnc(N4CCC5(CC4)CC(CN4CCN(c6ccc(NC7CCC(=O)NC7=O)cc6F)CC4)C5)nc3)cc2c1C#N (stereo not drawn) | 0.026
Cc1ccc(O)c(C)c1-c1cnc2[nH]c(-c3cnc(N4CCC(CCN5CCN(c6ccc(NC7CCC(=O)NC7=O)cc6F)CC5)CC4)nc3)cc2c1C#N (stereo not drawn) | 0.01
Cc1ccc(O)c(C)c1-c1cnc2[nH]c(-c3cnc(N4CCC(CN5CCN(c6cc7c(cc6F)n(C6CCC(=O)NC6=O)c(=O)n7C)CC5)CC4)nc3)cc2c1C#N (stereo not drawn) | 0.005
Cc1ccc(O)c(C)c1-c1cnc2[nH]c(-c3cnc(N4CCC(CN5CCN(c6ccc7c(c6)CN(C6CCC(=O)NC6=O)C7=O)CC5)CC4)nc3)cc2c1C#N (stereo not drawn) | 0.028
Cc1ccc(O)c(C)c1-c1cnc2[nH]c(-c3cnc(N4CCC5(CC4)CC(N4CCN(c6ccc(NC7CCC(=O)NC7=O)cc6F)CC4)CO5)nc3)cc2c1C#N (stereo not drawn) | 0.026

Set 3 — observed: thermal unfolding; technique: differential scanning fluorimetry; concentration: 5.5 µM; direction: higher = more unfolded
Compound: C[C@@H]1CN(c2ccc(-c3cc(C(=O)NCCOCCOCCOCCOCCOCCOCCNC(=O)/C=C/c4[nH]cc(C(=O)N[C@@H](CC(N)=O)c5ccc(F)c(Cl)c5)c4-c4ccc(Cl)cc4F)ccc3F)cc2NC(=O)c2ccc(F)cc2C(F)(F)F)C[C@H](C)N1C
DCAF1: DDB1- and CUL4-associated factor 1 (DCAF1, Homo sapiens, UniProt Q9Y4B6)
Chain of UniProt Q9Y4B6 (whole entry, looked up): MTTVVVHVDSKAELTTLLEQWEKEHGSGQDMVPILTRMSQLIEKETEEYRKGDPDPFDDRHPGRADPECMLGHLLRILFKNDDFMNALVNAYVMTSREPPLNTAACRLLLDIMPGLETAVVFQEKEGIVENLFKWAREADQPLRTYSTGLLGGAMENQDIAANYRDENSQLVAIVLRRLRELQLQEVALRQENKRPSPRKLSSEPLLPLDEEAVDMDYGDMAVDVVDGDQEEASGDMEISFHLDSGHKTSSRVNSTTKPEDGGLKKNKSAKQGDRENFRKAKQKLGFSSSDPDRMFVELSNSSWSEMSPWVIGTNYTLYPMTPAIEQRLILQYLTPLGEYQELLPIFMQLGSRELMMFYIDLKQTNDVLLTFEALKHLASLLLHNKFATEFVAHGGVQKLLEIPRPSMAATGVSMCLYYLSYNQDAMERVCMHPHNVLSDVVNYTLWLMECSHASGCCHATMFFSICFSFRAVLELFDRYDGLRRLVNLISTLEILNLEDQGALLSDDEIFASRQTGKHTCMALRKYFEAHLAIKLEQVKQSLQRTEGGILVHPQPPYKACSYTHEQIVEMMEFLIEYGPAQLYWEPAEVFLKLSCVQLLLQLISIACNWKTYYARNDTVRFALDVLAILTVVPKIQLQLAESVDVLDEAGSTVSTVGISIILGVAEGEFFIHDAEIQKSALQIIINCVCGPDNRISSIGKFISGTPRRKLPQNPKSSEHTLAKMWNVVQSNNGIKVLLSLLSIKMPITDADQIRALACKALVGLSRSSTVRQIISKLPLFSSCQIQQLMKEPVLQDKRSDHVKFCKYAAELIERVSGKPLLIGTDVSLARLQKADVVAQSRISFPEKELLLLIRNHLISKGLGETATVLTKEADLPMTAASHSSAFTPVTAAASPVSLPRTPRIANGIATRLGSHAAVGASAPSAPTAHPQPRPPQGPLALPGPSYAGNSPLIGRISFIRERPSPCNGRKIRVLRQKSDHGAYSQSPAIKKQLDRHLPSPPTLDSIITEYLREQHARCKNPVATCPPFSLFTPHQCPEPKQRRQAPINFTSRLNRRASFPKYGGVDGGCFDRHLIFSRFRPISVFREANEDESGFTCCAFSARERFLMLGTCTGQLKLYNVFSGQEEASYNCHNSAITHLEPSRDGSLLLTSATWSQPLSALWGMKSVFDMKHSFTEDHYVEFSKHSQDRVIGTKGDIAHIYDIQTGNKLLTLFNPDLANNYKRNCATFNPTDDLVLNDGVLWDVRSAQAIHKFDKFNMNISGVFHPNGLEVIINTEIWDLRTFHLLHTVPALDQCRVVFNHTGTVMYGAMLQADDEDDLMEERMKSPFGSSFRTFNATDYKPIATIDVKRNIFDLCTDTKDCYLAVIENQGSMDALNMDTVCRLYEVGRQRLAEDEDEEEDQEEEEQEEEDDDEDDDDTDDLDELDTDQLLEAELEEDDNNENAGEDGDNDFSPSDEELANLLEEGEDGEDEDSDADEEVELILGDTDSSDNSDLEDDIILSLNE
WDR5: WD repeat-containing protein 5 (WDR5, Homo sapiens, UniProt P61964)
target | temperature | SYPRO Orange fluorescence [a.u.]
DCAF1 | 34.2 °C | 9590
WDR5 | 48.4 °C | 15700
DCAF1 | 26 °C | 7450
DCAF1 | 62.01 °C | 52700
WDR5 | 58.61 °C | 15700
DCAF1 | 67.61 °C | 50700
DCAF1 | 55.81 °C | 29700
DCAF1 | 40.8 °C | 12000
DCAF1 | 65.01 °C | 53600
DCAF1 | 82.41 °C | 38200
WDR5 | 78.21 °C | 60900

Set 4
Structure (SMILES): COCC1CC2C(CCC3C(O)CCC32)c2ccc(O)cc21 (stereo not drawn)
cell line | technique | item | concentration | reference | log2 fold change
SK-OV-3 | DNA microarray | KIF20A | 25 µM | untreated cells | -0.0696 and -0.0752 and -0.0508 and -0.0497 and 0.00569
SK-OV-3 | microarray | RFC3 | 100 µM | untreated | -0.0738
PANC-1 | DNA microarray | GINS1 | 25 µM | untreated cells | 0.476
PANC-1 | microarray | CCL11 | 100 µM | untreated | 8.43
A549 | DNA microarray | ACTA2 | 25 µM | untreated cells | -0.155
PANC-1 | DNA microarray | CCL1 mRNA (probe A_23_P49759) | 25 µM | control | 2.34
PANC-1 | DNA microarray | TMEM108 | 100 µM | untreated cells | 0.739
SK-OV-3 | microarray | GZMK | 25 µM | untreated | 0.304
PANC-1 | microarray | PIF1 | 100 µM | untreated | 0.521
PANC-1 | DNA microarray | UBB mRNA | 25 µM | control | -0.727
PANC-1 | DNA microarray | ADAMTS14 mRNA | 25 µM | control | 2.52
SK-OV-3 | DNA microarray | GINS1 | 100 µM | untreated cells | -0.343
PANC-1 | microarray | AURKA | 100 µM | untreated | 0.524
SK-OV-3 | DNA microarray | MCM10 | 100 µM | untreated cells | -0.449
PANC-1 | DNA microarray | CCL1 mRNA (probe A_23_P49759) | 100 µM | control | 2.83
PANC-1 | DNA microarray | TMEM108 | 25 µM | untreated cells | 1.02
PANC-1 | microarray | RFC3 | 25 µM | untreated | 0.763
PANC-1 | DNA microarray | CCL22 mRNA | 25 µM | control | 4.66
PANC-1 | DNA microarray | MCM7 | 25 µM | untreated cells | 0.146
SK-OV-3 | microarray | CCL11 | 25 µM | untreated | 7.82
SK-OV-3 | microarray | OLIG2 | 100 µM | untreated | 0
PANC-1 | DNA microarray | KIF20A | 100 µM | untreated cells | 0.512 and 0.537 and 0.532 and 0.542
SK-OV-3 | DNA microarray | ADAMTS8 | 100 µM | untreated | 5.71
A549 | DNA microarray | KIF20A | 100 µM | untreated cells | -0.313 and -0.301 and -0.292 and -0.215 and -0.25
A549 | microarray | PIF1 | 25 µM | untreated | -0.227

Set 5 — observed: kinase activity
SMILES: CNc1ncc2cc(-c3cc(OC)cc(OC)c3Cl)c(=O)n(CCc3ccc(NC(=O)C(C#N)=CC(C)(C)N4CCOCC4)cc3)c2n1
target | concentration | inhibition
Receptor-type tyrosine-protein kinase FLT3 (FLT3, Homo sapiens, UniProt P36888) | 1 µM | 4%
ALK tyrosine kinase receptor (ALK, Homo sapiens, UniProt Q9UM73) | 1 µM | 2%
Tyrosine-protein kinase Fer (FER, Homo sapiens, UniProt P16591) | 0.1 µM | 6%
Protein-tyrosine kinase 6 (PTK6, Homo sapiens, UniProt Q13882) | 1 µM | 0%
Serine/threonine-protein kinase Nek6 (NEK6, Homo sapiens, UniProt Q9HC98) | 0.1 µM | 0%
Rho-associated protein kinase 1 (ROCK1, Homo sapiens, UniProt Q13464) | 0.1 µM | -4%
Protein kinase C theta type (PRKCQ, Homo sapiens, UniProt Q04759) | 0.1 µM | 3%
Casein kinase I isoform gamma-3 (CSNK1G3, Homo sapiens, UniProt Q9Y6M4) | 1 µM | 13%
Tyrosine-protein kinase ZAP-70 (ZAP70, Homo sapiens, UniProt P43403) | 0.1 µM | -4%
Ribosomal protein S6 kinase alpha-5 (RPS6KA5, Homo sapiens, UniProt O75582) | 0.1 µM | 0%
Protein kinase C beta type, isoform beta-I (PRKCB, Homo sapiens, UniProt P05771) | 0.1 µM | 1%
Inhibitor of nuclear factor kappa-B kinase subunit beta (IKBKB, Homo sapiens, UniProt O14920) | 0.1 µM | 1%

Set 6
Compound: CC(C)=CCN1C(=O)C(O)(C(=O)O)Oc2cc(F)ccc21 (stereo not drawn)
organism | assay | test system | setting | how to read | inhibition
Avena fatua | fresh weight |  | 150 g ai/ha, pre-emergence treatment |  | 37.8% and 41.5% and 46.7%
Arabidopsis thaliana | root length | Col-0, seedlings | 3.125 µg/mL |  | 10.7%
Arabidopsis thaliana | root length | Col-0, seedlings | 50 µg/mL |  | 30.9%
Arabidopsis thaliana | hypocotyl length | Col-0 | 100 µg/mL, 7 days, seed germination, dark |  | 31.5%
Arabidopsis thaliana | root length | Col-0, seedlings | 50 µg/mL | reference: water control | 30.9%
Arabidopsis thaliana | hypocotyl length | Col-0, seedlings | 12.5 µg/mL |  | 4.64%
Arabidopsis thaliana | hypocotyl length | Col-0 | 12.5 µg/mL, 7 days, seed germination, dark |  | 4.6%
Arabidopsis thaliana | hypocotyl length | Col-0 | 25.0 µg/mL, 7 days, seed germination, dark |  | 11.8%
Arabidopsis thaliana | hypocotyl length | Col-0, seedlings | 100 µg/mL |  | 31.5%
Arabidopsis thaliana | root length | Col-0, seedlings | 25 µg/mL | reference: water control | 17.9%
Glycine max | fresh weight |  | soil surface spray, 150 g ai/ha, 21 days, pre-emergence crop safety |  | 16.6% and 15.1% and 15.7%
Arabidopsis thaliana | root length | Col-0, seedlings | 6.25 µg/mL | reference: water control | 11.9%
Arabidopsis thaliana | root length | Col-0, seedlings | 25 µg/mL |  | 17.9%
Amaranthus retroflexus | fresh weight |  | 150 g ai/ha, post-emergence treatment |  | 29.1% and 28.2% and 34.3%

Set 7
SMILES: Cc1ncsc1-c1ccc(C(CO)NC(=O)C2CC(O)CN2C(=O)C(C(C)C)n2cc(-c3ccc(COc4c(-c5c(C)c(F)cc6[nH]ncc56)c(C5CC5)cc5c(N6CC7CC6CN7)nc(OC6CCOCC6)nc45)cc3)nn2)cc1 (stereo not drawn)
cell line | species | dose | time | tumour volume
 | mouse, PK-59 xenograft | 30 mg/kg | day 14 | 117 mm3 and 196 mm3 and 123 mm3 and 176 mm3 and 118 mm3
GP2d xenograft | mouse | 30 mg/kg once weekly | day 14 | 195 mm3 and 246 mm3 and 227 mm3 and 180 mm3 and 215 mm3
 | mouse, PK-59 xenograft | 0.3 mg/kg | day 21 | 1470 mm3 and 1880 mm3 and 1790 mm3 and 2110 mm3 and 1850 mm3
 | mouse, lung LXFA sample B PDX | 30 mg/kg twice weekly | day 4 | 156 mm3 and 205 mm3 and 76.1 mm3 and 75.4 mm3 and 224 mm3 and 91.4 mm3 and 59.7 mm3 and 159 mm3
HPAC xenograft | mouse | 30 mg/kg once weekly | day 7 | 342 mm3 and 260 mm3 and 284 mm3 and 252 mm3 and 402 mm3
 | mouse, lung LXFA sample A PDX | 10 mg/kg twice weekly | day 2 | 139 mm3 and 158 mm3 and 58.1 mm3 and 133 mm3 and 83.5 mm3 and 207 mm3 and 109 mm3 and 250 mm3

Set 8 — cell line: U-87 MG; concentration: concentration not given; reference: DMSO
SMILES: CCN1/C(=C/C=C2\CCCC(/C=C/C3=[N+](CC)c4ccccc4C3(C)C)=C2NCCCCCCCCN2CCC(Nc3nc4ccccc4n3Cc3ccc(F)cc3)CC2)C(C)(C)c2ccccc21
item | log2 fold change
ITGA1 mRNA | 1.02
PDE4B mRNA | -2
TRAIP mRNA | -1.1
TIPARP mRNA | 1.94
PBK mRNA | -1.99
PRKACB mRNA | 0.914
ARHGEF39 mRNA | -1.51
NEURL1B mRNA | -3.05
BACH1 mRNA | 0.966
PLEKHO1 mRNA | -0.976
FLOT2 mRNA | -1.1
SAMD1 mRNA | -0.999
IRAK2 mRNA | 1.19
ZIC4 mRNA | -0.846
FOXG1 mRNA | -1.34
TNFAIP8L3 mRNA | -0.831

Further values, each from its own experiment
SMILES | target or system | assay | test system | setting | how to read | quantity | result
Clc1ccc(Nc2c3c(nc4ccccc24)CCC3)cc1 | Leishmania donovani |  | THP-1, DD8 promastigote |  | reference: THP-1 cytotoxicity over promastigote activity | selectivity ratio | 3.04
CCOc1ccc2nc(Sc3nc(Nc4ccc(I)cc4)nc(N4CCOCC4)n3)sc2c1 | Gaucher fibroblasts | qPCR, item: GBA1 |  | 10 µM, 24 h, unit not given | reference: DMSO | mRNA level | 2.02 and 1.45 and 2.99 and 2.55 and 2.95 and 2.62 and 1.94
Cc1ccc2nc3c(c(Nc4ccc(O)cc4)c2c1)CCC3 | Leishmania donovani |  | THP-1, DD8 promastigote |  | reference: THP-1 cytotoxicity over promastigote activity | selectivity ratio | 5.86
COc1ccc(OC)c(Nc2c3c(nc4ccccc24)CCC3)c1 | Leishmania donovani | viability, resazurin | DD8 | promastigotes |  | IC50 | 3.15 µM and 4.37 µM
COC(=O)c1cccc(Nc2c3c(nc4ccccc24)CCC3)c1 | Leishmania donovani |  | THP-1, DD8 promastigote |  | reference: THP-1 cytotoxicity over promastigote activity | selectivity ratio | 4.24

Repeated from above (set 3):
target | temperature | SYPRO Orange fluorescence [a.u.]
DCAF1 | 40.8 °C | 12000
DCAF1 | 82.41 °C | 38200
DCAF1 | 26 °C | 7450
DCAF1 | 62.01 °C | 52700
DCAF1 | 34.2 °C | 9590
DCAF1 | 67.61 °C | 50700
DCAF1 | 65.01 °C | 53600
WDR5 | 48.4 °C | 15700
WDR5 | 78.21 °C | 60900
WDR5 | 58.61 °C | 15700
DCAF1 | 55.81 °C | 29700
